Experimental data of several laboratories.
Protocols differ between the studies behind these lines.

`CCN(CC)CCNC(=O)c1c(C)[nH]c(/C=C2\C(=O)Nc3ccc(F)cc32)c1C` has an AUC(0-inf) of 1370 ng·h/mL (human, normal hepatic function (Child-Pugh), plasma; single dose, geometric mean, total drug).
With `C=C(C)[C@@H]1CC[C@]2(NCCN3CCS(=O)(=O)CC3)CC[C@]3(C)[C@H](CC[C@@H]4[C@@]5(C)CC=C(C6=CC[C@@](CF)(C(=O)O)CC6)C(C)(C)[C@@H]5CC[C@]43C)[C@@H]12` the AUC(0-inf) was 15700 ng·h/mL (healthy human volunteers, plasma; oral, 200 mg, tablet, fasted state, mean).
`Cc1c(O)ccc2c1OC[C@@H](c1ccc(O)cc1)[C@H]2c1ccc(O)cc1` has an AUC(0-inf) of 22000 ng·h/mL (human patients, plasma; intravenous, 10 mg/kg, 30 min infusion, cycle 1, mean, together with: topotecan).
`COc1cc(Nc2ncc3c(n2)-c2ccc(Cl)cc2C(c2c(F)cccc2OC)=NC3)ccc1C(=O)O` gave an AUC(0-inf) of 26.2 µM·h (human, plasma; oral, 50 mg single, fasted).
`NS(=O)(=O)OC[C@@H]1C[C@@H](n2ccc3c(N[C@H]4CCc5ccccc54)ncnc32)C[C@@H]1O` gave an AUC(0-inf) of 585 ng·h/mL (human; intravenous, 8 mg/m^2 single dose, day 8, together with: itraconazole).
`Cc1ccc(NC(=O)c2ccc(CN3CCN(C)CC3)cc2)cc1Nc1nccc(-c2cncc(-c3oncc3C)c2)n1` gave an AUC(0-inf) of 9470 ng·h/mL (older healthy human adults, plasma; oral, 12.5 mg single dose, fed, mean).
The AUC(0-inf) of `C=CC(=O)Nc1cc(Nc2ncc(C(=O)OC(C)C)c(-c3cn(C)c4ccccc34)n2)c(OC)cc1N(C)CCN(C)C` is reported as 308 ng·h/mL (human, fasted; oral, 80 mg single dose, arithmetic mean).
`CC(C)NC[C@@H](C(=O)N1CCN(c2ncnc3c2[C@H](C)C[C@H]3O)CC1)c1ccc(Cl)cc1` gave an AUC(0-inf) of 920 ng·h/mL (human, hepatic impairment Severe (Child-Pugh), plasma; oral, 100 mg single, geometric mean).
The AUC(0-inf) of `O=C(c1nc2n(n1)[C@H](c1ccccc1)C[C@@H]2F)C1CC1` is reported as 13000 ng·h/mL (humans, plasma; oral, 75 mg single dose, high-fat meal).
With `CO[C@H]1C[C@@H]2CC[C@@H](C)[C@@](O)(O2)C(=O)C(=O)N2CCCC[C@H]2C(=O)O[C@H]([C@H](C)C[C@@H]2CC[C@@H](O)[C@H](OC)C2)CC(=O)[C@H](C)/C=C(\C)[C@@H](O)[C@@H](OC)C(=O)[C@H](C)C[C@H](C)/C=C/C=C/C=C/1C` the AUC(0-inf) was 2420 ng·h/mL (human, whole blood; oral, 30 mg, together with: grapefruit juice).

Some of these lines once more:
With `CO[C@H]1C[C@@H]2CC[C@@H](C)[C@@](O)(O2)C(=O)C(=O)N2CCCC[C@H]2C(=O)O[C@H]([C@H](C)C[C@@H]2CC[C@@H](O)[C@H](OC)C2)CC(=O)[C@H](C)/C=C(\C)[C@@H](O)[C@@H](OC)C(=O)[C@H](C)C[C@H](C)/C=C/C=C/C=C/1C` the AUC(0-inf) was 2420 ng·h/mL (human, whole blood; oral, 30 mg, together with: grapefruit juice).
